Measured values from different studies.
Compare with care: the assays were run in different laboratories. “And” joins repeats or separate records; there may be more than shown. Numbers after ± are the reported error.
Chain of UniProt Q15370 (whole entry, looked up): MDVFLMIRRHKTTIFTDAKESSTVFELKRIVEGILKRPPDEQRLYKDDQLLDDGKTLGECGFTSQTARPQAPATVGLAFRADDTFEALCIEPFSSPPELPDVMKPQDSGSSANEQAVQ
Chain of UniProt Q9Y243 (whole entry, looked up): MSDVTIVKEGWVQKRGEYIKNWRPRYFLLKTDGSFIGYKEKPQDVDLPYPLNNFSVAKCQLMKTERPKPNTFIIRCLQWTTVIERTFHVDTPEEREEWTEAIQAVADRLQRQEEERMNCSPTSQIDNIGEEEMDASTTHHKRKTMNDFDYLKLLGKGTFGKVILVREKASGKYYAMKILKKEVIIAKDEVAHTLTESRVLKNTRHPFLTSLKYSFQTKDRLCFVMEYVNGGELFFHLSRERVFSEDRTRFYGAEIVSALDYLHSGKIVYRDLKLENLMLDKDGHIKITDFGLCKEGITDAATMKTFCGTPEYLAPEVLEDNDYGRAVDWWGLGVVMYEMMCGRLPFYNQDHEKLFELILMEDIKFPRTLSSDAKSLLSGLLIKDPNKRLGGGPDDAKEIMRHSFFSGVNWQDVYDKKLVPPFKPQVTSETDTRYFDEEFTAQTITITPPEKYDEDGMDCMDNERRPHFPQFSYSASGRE

COc1cc2c(Oc3ccc4[nH]c(C)cc4c3F)ccnc2cc1OCC1(N)CC1
hand-foot syndrome incidence (paediatric refractory sarcoma patients; 8 mg): 0%

COc1cc(Nc2ncc(F)c(Nc3ccc4c(n3)NC(=O)C(C)(C)O4)n2)cc(OC)c1OC
IC50 (P2X purinergic receptor): > 10 µM

CCCc1cc(O)c(C/C=C(\C)CCC=C(C)C)c(O)c1C(=O)O
plasma concentration (LC-MS/MS; Scn1a+/− mice, plasma; intraperitoneal, 30 mg/kg, after hyperthermia protocol): 181 ± 18 µg/mL

Cc1ccc(S(=O)(=O)n2c(N)nc3ccccc32)cc1
plasma concentration (mouse, plasma; intraperitoneal, 15 mg/kg, 20 min): 1580 ± 60 nM

CCCc1cc(O)c(C/C=C(\C)CCC=C(C)C)c(O)c1
plasma concentration (LC-MS/MS; Scn1a+/− mice, plasma; intraperitoneal, 100 mg/kg, after hyperthermia protocol): 7 ± 1 µg/mL

CO[C@H]1C[C@@H]2CC[C@@H](C)[C@@](O)(O2)C(=O)C(=O)N2CCCC[C@H]2C(=O)O[C@H]([C@H](C)C[C@@H]2CC[C@@H](OC(=O)NCCOCCOCCOCCOCCOCCOCCOCCOCCC(=O)N3CCc4cc(Cn5nc(-c6ccc7oc(N)nc7c6)c6c(N)ncnc65)ccc4C3)[C@H](OC)C2)C[C@@H](O)[C@H](C)/C=C(\C)[C@@H](O)[C@@H](OC)C(=O)[C@H](C)C[C@H](C)/C=C/C=C/C=C/1C
incidence of Vomiting TEAE (patients with advanced solid tumours; intravenous, 1.6 mg/3 mg weekly, grade ≥3): 0%

CC[C@H](C)[C@@H]1NC(=O)[C@@H]2CCCN2C(=O)[C@H](CC(C)C)NC(=O)[C@H](CC(C)C)NC(=O)CNC(=O)[C@@H](NC(=O)[C@@H](NC(=O)[C@H](CC(=O)O)NC(=O)CNC(=O)[C@@H](NC(=O)[C@H](C)NC(=O)CNC(=O)[C@H](CCCCN)NC(=O)[C@H](CC(C)C)NC(=O)[C@H](CC(C)C)NC(=O)[C@H](CCCCN)NC(=O)CNC(=O)[C@@H](NC(=O)[C@@H](N)CC(C)C)C(C)C)C(C)C)C(C)C)CSSC[C@@H](C(=O)O)NC1=O
log2 fold change (RNA-seq, refers to: Alox5ap mRNA; mouse traumatic brain injury, frontal cortex and hippocampus; dose not given; baseline: TBI plus compound vs TBI): -3.11

Clc1nc[n]([Au][PH](c2ccccc2)(c2ccccc2)c2ccccc2)c1Cl
plasma concentration (NCG mouse; intraperitoneal, 10 mg/kg, 24 h): 14.3 µg/mL

COc1ccc(N2C(=O)N(c3c(C)cccc3Cl)Cc3cnc(Nc4ccc(C5CCN(C)CC5)cc4OC)nc32)nc1
inhibition (RAC-gamma serine/threonine-protein kinase (AKT3, Homo sapiens, UniProt Q9Y243); kinase activity; 0.5 µM): 3%

NC(=O)c1cccc(-c2cc(OC(=O)NC3CCCCC3)ccc2O)c1
plasma concentration (mouse, plasma; oral, 10 mg/kg, 24 h): 0.0011 µg/mL

C[C@H]1CN(c2n[nH]c3nc(N[C@H]4CC[C@H](NS(=O)(=O)CCC(F)(F)F)CC4)ncc23)CCO1
remaining binding (Elongin-B (Homo sapiens, UniProt Q15370); Kinobeads competition, refers to: TCEB2; 0.16 µM, unit not given; baseline: vehicle): 1.12

CCN(CC)CCCC[C@H](NC(=O)[C@H](CC(C)C)NC(=O)[C@H](C)NC(=O)[C@H](Cc1ccccc1)NC(=O)c1ccc(C(C)(C)C)cc1)C(=O)N[C@@H](CO)C(=O)OC
plasma concentration (male Swiss albino mice, plasma; intraperitoneal, 10 mg/kg, 8 h): 0 µg/mL

C=C(C)[C@@H]1CCC(C)=C[C@H]1c1c(O)cc(CCC)cc1O
plasma concentration (LC-MS/MS; Scn1a+/− mice, both sexes, plasma; intraperitoneal, 60 mg/kg, after hyperthermia protocol): 4 ± 0.6 µg/mL

Cc1ccccc1C(=O)NN=Cc1ccc(O)c(Br)c1
plasma concentration (C3H/HeN mouse IN model, plasma; intravenous, 0.8 mg/kg, 30 min): 0.0595 µg/mL

C1=Cc2nc1cc1ccc([n-]1)c(-c1ccccc1)c1nc(cc3ccc([n-]3)c2-c2ccccc2)C=C1.CC(=O)[O-].[Mn+3]
plasma concentration (LC-MS/MS; Sprague-Dawley rat, plasma; oral gavage, dose not given, 360 min): 0.094 µg/mL and 0.135 µg/mL

Cc1ccc(F)c2cc(C(=O)N[C@@H]3CCC[C@H](N4CC[C@H](N(C)S(C)(=O)=O)C4)C3)[nH]c12
plasma concentration (CD1 mouse, plasma; intravenous, 1 mg/kg, 0.05 h): 0.274 µg/mL

[2H]C([2H])([2H])C1(C([2H])([2H])[2H])NC(=O)N(c2ccc(F)c(C(F)(F)F)c2)C1=O
plasma concentration (male Swiss outbred mice, plasma; oral, 100 mg/kg, 48 h): 38.8 ± 1.43 µg/mL

C1=Cc2nc1cc1ccc([n-]1)c(C1CC1)c1nc(cc3ccc([n-]3)c2C2CC2)C=C1.CC(=O)[O-].[Mn+3]
plasma concentration (LC-MS/MS; Sprague-Dawley rat, plasma; oral gavage, dose not given, 240 min, individual rat Rat1): 0.109 µg/mL

CCCCCc1cc(O)c(C/C=C(\C)CCC=C(C)C)c(O)c1C(=O)O
plasma concentration (LC-MS/MS; Scn1a+/− mice, both sexes, plasma; intraperitoneal, 100 mg/kg, after hyperthermia protocol): 73 ± 10 µg/mL

A few entries again:
C=C(C)[C@@H]1CCC(C)=C[C@H]1c1c(O)cc(CCC)cc1O
plasma concentration (LC-MS/MS; Scn1a+/− mice, both sexes, plasma; intraperitoneal, 60 mg/kg, after hyperthermia protocol): 4 ± 0.6 µg/mL

Cc1ccccc1C(=O)NN=Cc1ccc(O)c(Br)c1
plasma concentration (C3H/HeN mouse IN model, plasma; intravenous, 0.8 mg/kg, 30 min): 0.0595 µg/mL

C1=Cc2nc1cc1ccc([n-]1)c(-c1ccccc1)c1nc(cc3ccc([n-]3)c2-c2ccccc2)C=C1.CC(=O)[O-].[Mn+3]
plasma concentration (LC-MS/MS; Sprague-Dawley rat, plasma; oral gavage, dose not given, 360 min): 0.094 µg/mL and 0.135 µg/mL
